Published values collected from several papers.
Every numbered part comes from another study and shows a few of its results, in no order. Substitutions count along the parent as printed.

Sample 1 — target: CCNF, cyclin fold, Cln2 fusion (human); technique: yeast growth competition, sequencing; medium: yeast; notes: strong parent motif; baseline: not given; reading: higher = stronger binding
Parent: CDC6 docking peptide (human); TLKGRRLVFDNQL
Substitution | normalised enrichment score
V8T | 7.14
R6D | 0.641
F9D | 0.221
G4V | 4.83
T1G | 8.69
K3H | 7.8
L2H | 6.03
R5K | 6.56
V8M | 7.67
N11Y | 9.94
L7H | 0.701
F9I | 2.73
N11I | 8.16
L13T | 8.26
T1K | 10.8
L7W | 1.83
D10A | 7.8
G4H | 3.72
L13W | 8.52
R6P | 1.21
T1D | 6.8
R6L | 5.08
R6M | 8.05
Q12L | 10.9
G4D | 0.783

Sample 2 — technique: RNA Bind-n-Seq; molecule type: RNA; medium: in vitro; tested at: 365 nM; baseline: no-protein control; reading: higher = stronger binding
Target: RNA binding protein fox-1 homolog 2, RRM domain, GST-SBP tag (RBFOX2, Homo sapiens, UniProt O43251-10, residues 100-194)
Notes: natural RNA segment, single round, ends assumed
Residues (chain): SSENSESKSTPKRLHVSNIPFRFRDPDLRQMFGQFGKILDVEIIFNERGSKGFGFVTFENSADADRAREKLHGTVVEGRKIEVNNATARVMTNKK
Oligonucleotide | RBNS enrichment (R)
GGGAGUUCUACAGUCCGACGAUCGUGGCAUGACAUUCUGCAAUACUUUGCUGAAUUGAACACUAUUGUGUCUUAAAUACUUGCACUAAAUAGUGCACUGCAAGACCAGAAAAUUUUACAAUAUUUUUUCUUUAUGGAAUUCUCGGGUGCCAA | 1.13
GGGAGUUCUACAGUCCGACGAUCUACUGAGAAUCUAGGCCACCCCAACCUCUGUUCCCCACCCAGUUCUUCAUUUGGAGGAAUCACCCCAUUUCAGAGUUAUCAAGAGACACUCCCCCCUCCAUUCCCACCCCUGGAAUUCUCGGGUGCCAA | 0.779
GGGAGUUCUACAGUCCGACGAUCCCUCCCCCACUGUCUGGGACACAGGACAGGUGUUGCGUCUGACUCUGUCUCCCCCUGUCCAAGAGCUAUAGGCUGGUUGAGGCAAGUGGAACCUUAUCAGUGACUUGGCCUGGAAUUCUCGGGUGCCAA | 0.414
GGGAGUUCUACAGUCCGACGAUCAUAUUUUCACAUUAGGUUGCUGUCUAAUUUUGGAGAGGGUCAGGAAUCGUUCUGGUGCCUUAAUGCACAGCUGGAAUUCAGGUAAACACAUCAGCUGUUGCUGGCGGUUGUGGAAUUCUCGGGUGCCAA | 0.336
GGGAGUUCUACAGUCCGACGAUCAAGCCUUAAUGAACAGUGUAUAUACAUCUGUGUAUGCACACUCCACCCCAGAGUGUUUUCAGUGUGCCAGAGAAGCAGCUGUAGCGUUAGGACAUGAGCCUGUCUAGUGUUGGAAUUCUCGGGUGCCAA | 0.259
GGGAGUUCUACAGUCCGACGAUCUGUAUCUACUUAGCCAGAUGCUUGGCCUGGUGGGACCAGGGCUCCACAGAGGCCACAAAAUGUUGCAAGUCAUGAUGGAUGGAAAUAUGUUCUAACAGCAUCUGCCUCUAUGGAAUUCUCGGGUGCCAA | 4.09
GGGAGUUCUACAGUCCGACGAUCUGAAACUAUUCUUUGGCAUUGGUGUCCAUGGCCCUAUACCGCCAUCUUACACGAAAGCCACAGAGUUGAAAGCCACAGAGUUGAAAGCCACAGAGUUAAGUGACCUCAGGUGGAAUUCUCGGGUGCCAA | 0.334
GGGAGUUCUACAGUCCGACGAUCCUACAAUAAGAUUGUUGCCGUUAAGAAGACCUUGGAUGUUGUUCCAGUUAUGCUGGAUUCCACAGUGAAAUCAUUUAAAACCAUCUAAAUAAACCACUAUAUAUUUUAUGUGGAAUUCUCGGGUGCCAA | 0.512

Sample 3 — technique: competition protein-binding microarray; molecule type: double-stranded DNA, one strand shown; medium: in vitro; tested at: 2 µM; together with: Pho4 competitor, 0.05 µM; reading: higher = stronger binding
Target: Centromere-binding protein 1, full length, His-tagged (CBF1, Saccharomyces cerevisiae, UniProt P17106, residues 1-351)
Sequence of UniProt P17106 (whole entry, looked up): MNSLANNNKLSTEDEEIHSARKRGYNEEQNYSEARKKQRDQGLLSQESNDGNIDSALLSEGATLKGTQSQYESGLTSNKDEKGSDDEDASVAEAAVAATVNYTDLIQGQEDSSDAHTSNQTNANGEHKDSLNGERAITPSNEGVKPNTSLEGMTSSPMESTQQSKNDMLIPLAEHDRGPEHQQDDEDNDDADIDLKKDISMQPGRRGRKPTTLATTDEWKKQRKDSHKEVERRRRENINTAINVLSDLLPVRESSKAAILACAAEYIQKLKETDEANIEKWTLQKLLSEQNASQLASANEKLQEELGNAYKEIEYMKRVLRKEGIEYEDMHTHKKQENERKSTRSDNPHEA
Notes: whole 60-bp probe, lowest competitor level
Oligonucleotide | fluorescence intensity
CGTCCTAGTGATTGTCACTGGACTTCCATGAGGAAGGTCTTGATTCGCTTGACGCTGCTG | 109 a.u.
TGCGCAACAACTTGCGGCGTGGGTGTATGTCTAGAAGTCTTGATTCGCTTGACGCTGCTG | 64.6 a.u.
CGACCATTTTATCGGCACGCTTCCGCAAGTTGGTTCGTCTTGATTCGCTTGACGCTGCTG | 101 a.u.
AAAGCGGTAATTTGTCACTAGACTTCACATATCTATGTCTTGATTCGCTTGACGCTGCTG | 105 a.u.
CGTCCTAGTGATTTTCACGTGCGATCCATGAGGAAGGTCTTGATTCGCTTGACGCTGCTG | 778 a.u.
CTTTCCCGATCTTGAGCCGTGGGTGTAGCACATTTGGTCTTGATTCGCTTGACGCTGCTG | 52.6 a.u.
TAGGTGCCGTACTATCGCGTGCCAGCACCATGACAGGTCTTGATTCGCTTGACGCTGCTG | 101 a.u.
TGCGCAACAACTTTTCACGTGAAGTTATGTCTAGAAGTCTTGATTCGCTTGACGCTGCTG | 926 a.u.
ATCAAATGAGACTAGCACATGGGGCTCTCGTTAGCCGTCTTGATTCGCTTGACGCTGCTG | 92 a.u.
TCGGAGGCCACTCACCACGGGAGGAGGCCAAGGCTGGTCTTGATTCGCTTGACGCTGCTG | 60 a.u.
CATACCCAACCTTGCCACGTGTTTTAAGATATTTGTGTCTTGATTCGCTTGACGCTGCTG | 1250 a.u.
TCTCTTTTGCATCGAAACGTGGGTAGATCGTACCGGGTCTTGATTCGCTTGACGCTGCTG | 89.6 a.u.
CCTTCCACATTGCGTACCGTGACGGTGGCGGAATTTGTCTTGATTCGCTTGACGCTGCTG | 89 a.u.
TGAATACGTCTCTTGCTCGTGTGTTTTGCCATTATGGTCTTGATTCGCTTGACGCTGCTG | 84.2 a.u.
CATACCCAACCTTGGATGGTGGGTGAAGATATTTGTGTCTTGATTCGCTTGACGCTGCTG | 63.6 a.u.
AAAAGCATTCTTTGTCACGTGCCAGGGTTTGCTCCTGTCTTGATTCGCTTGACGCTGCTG | 7300 a.u.
TGACACTTCATGTTACACGTGAGGAGCTTCACCTTCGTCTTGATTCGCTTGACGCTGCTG | 1100 a.u.

Sample 4 — technique: DHFR PCA, deep sequencing; medium: yeast; together with: (+)-ABA 0.39 µM; baseline: wild-type fitted maximum; reading: higher = stronger binding
Target: ABI1, truncated, D143A, DHFR fusion (Arabidopsis thaliana)
Notes: methotrexate growth selection, single substitutions
Parent: PYL1, truncated, DHFR fusion (Arabidopsis thaliana); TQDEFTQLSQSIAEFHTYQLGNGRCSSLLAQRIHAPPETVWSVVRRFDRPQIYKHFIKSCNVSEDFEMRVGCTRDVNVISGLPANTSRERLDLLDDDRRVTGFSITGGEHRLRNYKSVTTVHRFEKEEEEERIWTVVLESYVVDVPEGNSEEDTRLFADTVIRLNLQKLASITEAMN; partner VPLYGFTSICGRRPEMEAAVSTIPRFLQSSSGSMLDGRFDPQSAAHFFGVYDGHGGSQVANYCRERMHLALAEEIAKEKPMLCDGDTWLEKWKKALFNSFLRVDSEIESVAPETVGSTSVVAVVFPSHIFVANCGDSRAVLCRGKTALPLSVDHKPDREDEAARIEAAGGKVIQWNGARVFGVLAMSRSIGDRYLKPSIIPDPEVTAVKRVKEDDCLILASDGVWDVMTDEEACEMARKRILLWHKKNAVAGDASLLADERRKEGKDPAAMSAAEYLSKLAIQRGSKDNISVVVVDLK
Substitution | relative binding score
S80E | -4.24%
L94E | -2.15%
Q19K | 50.8%
G102I | 32.1%
V143G | -10.5%
V143T | 20.9%
Q31H | 16.3%
A158F | -8.1%
N165H | 17.2%
A158W | -7%
F5C | 25.2%
S87R | 61.2%
E125Y | 47.4%
A170R | 45.9%
L169R | 12%
N22R | 49.1%
E131G | 68.9%
V142M | 2.19%
I52W | 14.8%
G102H | -13.2%
T6K | 60.2%
T106Q | 17.8%
N77A | 57.2%
E129N | 48.5%
E174F | -38.8%

For quick reference, copied from above (sample 1):
Substitution | normalised enrichment score
D10A | 7.8
T1K | 10.8
L13W | 8.52
G4D | 0.783
L7H | 0.701
L2H | 6.03
R6D | 0.641
R6P | 1.21
L7W | 1.83
